Experimental data from different studies.
± gives the spread as reported.
FGFR1: Fibroblast growth factor receptor 1 (FGFR1, Homo sapiens, UniProt P11362)
UniProt P11362, sequence (whole entry, looked up): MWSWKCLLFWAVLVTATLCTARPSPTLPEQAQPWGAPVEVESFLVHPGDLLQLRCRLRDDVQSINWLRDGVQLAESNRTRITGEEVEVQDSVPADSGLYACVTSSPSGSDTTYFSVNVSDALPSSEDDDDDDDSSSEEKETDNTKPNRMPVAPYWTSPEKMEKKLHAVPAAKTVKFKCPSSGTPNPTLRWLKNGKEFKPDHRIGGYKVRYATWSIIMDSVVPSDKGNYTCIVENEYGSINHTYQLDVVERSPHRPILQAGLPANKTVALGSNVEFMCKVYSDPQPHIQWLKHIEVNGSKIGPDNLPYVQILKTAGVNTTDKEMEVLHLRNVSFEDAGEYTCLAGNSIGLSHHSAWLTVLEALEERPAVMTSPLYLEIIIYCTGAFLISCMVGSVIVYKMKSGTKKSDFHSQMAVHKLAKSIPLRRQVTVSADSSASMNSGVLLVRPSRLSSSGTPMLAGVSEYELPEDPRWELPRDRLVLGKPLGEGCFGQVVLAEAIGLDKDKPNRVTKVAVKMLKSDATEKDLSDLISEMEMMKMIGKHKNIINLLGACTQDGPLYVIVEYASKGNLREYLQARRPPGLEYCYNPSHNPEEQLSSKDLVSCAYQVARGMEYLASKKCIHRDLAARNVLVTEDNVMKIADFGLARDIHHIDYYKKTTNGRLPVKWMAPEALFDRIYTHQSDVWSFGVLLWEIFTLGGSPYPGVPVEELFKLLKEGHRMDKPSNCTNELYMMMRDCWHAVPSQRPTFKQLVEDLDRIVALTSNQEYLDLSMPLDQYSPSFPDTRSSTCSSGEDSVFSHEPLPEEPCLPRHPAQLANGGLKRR
lecB: Fucose-binding lectin PA-IIL (lecB, Pseudomonas aeruginosa, UniProt Q9HYN5)
UniProt Q14974, sequence (whole entry, looked up): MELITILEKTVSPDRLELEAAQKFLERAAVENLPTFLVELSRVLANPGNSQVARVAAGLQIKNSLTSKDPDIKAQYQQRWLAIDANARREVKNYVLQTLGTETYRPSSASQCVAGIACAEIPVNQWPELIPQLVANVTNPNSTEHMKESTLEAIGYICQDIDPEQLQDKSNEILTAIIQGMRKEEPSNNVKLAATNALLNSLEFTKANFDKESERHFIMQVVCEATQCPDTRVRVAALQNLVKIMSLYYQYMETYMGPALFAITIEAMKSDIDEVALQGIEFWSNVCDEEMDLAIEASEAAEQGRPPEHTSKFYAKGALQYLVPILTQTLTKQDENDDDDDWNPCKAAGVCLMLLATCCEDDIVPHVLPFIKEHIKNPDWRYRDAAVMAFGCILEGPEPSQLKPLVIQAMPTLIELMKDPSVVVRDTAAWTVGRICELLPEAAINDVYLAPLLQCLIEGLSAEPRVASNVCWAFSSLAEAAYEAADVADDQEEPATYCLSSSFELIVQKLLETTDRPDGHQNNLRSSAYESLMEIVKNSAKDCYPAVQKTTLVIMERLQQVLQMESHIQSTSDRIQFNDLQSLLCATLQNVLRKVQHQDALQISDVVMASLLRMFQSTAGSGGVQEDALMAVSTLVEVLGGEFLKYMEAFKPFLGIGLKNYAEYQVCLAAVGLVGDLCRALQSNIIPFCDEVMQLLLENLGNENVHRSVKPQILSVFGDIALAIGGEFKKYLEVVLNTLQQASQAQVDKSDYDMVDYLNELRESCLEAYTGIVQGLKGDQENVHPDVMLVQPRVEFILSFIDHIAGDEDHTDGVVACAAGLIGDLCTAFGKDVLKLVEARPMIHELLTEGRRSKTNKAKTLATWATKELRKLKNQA
UniProt P51654, sequence (whole entry, looked up): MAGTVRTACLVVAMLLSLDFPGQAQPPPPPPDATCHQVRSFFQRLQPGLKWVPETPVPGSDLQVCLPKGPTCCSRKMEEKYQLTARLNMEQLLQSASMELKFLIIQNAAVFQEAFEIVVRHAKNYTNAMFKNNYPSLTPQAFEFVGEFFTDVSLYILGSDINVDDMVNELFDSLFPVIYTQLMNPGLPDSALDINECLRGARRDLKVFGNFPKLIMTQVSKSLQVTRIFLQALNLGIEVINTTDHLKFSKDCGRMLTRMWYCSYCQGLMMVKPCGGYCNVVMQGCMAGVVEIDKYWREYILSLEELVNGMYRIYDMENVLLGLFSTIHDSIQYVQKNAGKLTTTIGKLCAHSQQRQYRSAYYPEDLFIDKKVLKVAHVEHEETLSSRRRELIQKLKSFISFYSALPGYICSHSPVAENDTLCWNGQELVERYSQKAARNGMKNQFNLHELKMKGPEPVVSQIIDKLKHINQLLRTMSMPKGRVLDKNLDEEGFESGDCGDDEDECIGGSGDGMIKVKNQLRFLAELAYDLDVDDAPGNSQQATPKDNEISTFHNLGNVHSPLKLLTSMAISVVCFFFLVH
UniProt Q9UER7, sequence (55-144, looked up): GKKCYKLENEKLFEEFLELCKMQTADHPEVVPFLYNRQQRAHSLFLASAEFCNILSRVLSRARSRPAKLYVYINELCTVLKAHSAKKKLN
UniProt Q16762, sequence (whole entry, looked up): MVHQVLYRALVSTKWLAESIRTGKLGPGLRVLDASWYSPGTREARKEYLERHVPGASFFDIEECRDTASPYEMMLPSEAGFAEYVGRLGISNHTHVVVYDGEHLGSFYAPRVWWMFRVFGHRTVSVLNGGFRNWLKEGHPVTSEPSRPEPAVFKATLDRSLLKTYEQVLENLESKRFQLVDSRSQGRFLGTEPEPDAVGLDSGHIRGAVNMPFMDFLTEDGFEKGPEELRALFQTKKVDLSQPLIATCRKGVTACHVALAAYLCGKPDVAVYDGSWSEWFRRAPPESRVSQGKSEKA
UniProt Q9HB29, sequence (whole entry, looked up): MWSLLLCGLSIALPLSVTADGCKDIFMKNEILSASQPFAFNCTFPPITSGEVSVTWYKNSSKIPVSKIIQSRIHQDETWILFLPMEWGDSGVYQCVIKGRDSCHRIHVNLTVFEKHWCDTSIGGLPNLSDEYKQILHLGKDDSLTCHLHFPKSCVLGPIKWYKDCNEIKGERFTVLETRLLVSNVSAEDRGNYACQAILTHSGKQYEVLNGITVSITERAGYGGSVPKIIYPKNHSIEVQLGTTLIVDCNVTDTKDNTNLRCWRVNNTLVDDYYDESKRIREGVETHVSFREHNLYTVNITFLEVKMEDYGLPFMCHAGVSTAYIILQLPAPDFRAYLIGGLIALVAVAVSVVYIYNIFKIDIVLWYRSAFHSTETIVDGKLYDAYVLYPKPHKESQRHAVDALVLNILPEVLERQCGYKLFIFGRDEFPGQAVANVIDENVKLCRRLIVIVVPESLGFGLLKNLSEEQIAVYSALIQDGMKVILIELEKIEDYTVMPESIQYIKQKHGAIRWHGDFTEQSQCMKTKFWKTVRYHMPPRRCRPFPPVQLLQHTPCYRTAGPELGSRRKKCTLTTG
UniProt P07492, sequence (whole entry, looked up): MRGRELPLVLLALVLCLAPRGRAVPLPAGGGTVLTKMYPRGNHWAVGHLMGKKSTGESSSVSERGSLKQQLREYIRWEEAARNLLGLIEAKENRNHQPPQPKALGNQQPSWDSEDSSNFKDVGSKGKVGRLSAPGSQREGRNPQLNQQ
UniProt P25440, sequence (whole entry, looked up): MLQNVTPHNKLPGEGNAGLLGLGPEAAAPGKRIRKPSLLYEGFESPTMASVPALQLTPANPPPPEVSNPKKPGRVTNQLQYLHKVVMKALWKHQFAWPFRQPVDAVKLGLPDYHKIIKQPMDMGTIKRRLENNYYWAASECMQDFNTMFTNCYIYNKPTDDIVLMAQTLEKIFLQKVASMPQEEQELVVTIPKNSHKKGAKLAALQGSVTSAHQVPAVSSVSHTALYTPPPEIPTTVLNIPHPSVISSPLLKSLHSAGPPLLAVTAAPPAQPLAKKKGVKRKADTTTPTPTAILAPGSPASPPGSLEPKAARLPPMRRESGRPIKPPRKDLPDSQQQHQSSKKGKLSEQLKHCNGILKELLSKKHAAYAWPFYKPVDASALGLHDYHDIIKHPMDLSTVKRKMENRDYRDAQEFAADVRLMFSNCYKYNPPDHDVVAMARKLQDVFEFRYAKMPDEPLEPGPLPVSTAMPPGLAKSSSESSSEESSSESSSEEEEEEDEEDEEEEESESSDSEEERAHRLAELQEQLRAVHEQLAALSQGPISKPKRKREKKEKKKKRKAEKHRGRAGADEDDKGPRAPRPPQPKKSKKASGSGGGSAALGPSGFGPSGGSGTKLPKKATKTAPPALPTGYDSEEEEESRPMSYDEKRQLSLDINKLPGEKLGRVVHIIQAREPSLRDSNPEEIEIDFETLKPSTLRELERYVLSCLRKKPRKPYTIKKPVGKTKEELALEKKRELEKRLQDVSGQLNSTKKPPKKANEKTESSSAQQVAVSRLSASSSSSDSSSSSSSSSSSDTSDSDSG
UniProt Q96NY8, sequence (whole entry, looked up): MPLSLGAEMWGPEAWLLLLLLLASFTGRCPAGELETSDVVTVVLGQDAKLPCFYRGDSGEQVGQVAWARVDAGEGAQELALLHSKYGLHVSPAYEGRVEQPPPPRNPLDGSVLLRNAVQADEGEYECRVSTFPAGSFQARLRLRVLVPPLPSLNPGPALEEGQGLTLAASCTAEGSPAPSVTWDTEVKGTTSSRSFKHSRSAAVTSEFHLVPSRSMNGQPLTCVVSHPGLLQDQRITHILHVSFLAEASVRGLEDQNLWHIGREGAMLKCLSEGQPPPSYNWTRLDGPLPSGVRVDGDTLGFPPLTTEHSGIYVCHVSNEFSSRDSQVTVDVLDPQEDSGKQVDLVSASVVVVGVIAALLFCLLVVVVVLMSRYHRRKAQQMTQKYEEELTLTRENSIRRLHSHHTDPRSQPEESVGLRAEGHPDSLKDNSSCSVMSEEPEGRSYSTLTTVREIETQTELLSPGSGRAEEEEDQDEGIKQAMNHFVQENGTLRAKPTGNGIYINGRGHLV

C[C@@H](O)[C@@H]1NC(=O)[C@H](CCCCN)NC(=O)CCCC(=O)NCCCC[C@@H](C(=O)NCC(=O)NCC(=O)N[C@@H](Cc2ccc(O)cc2)C(=O)NCC(=O)N[C@@H](CCCNC(=N)N)C(=O)N[C@@H](CCCCN)C(=O)N[C@@H](CCCCN)C(=O)N[C@@H](CCCNC(=N)N)C(=O)N[C@@H](CCCNC(=N)N)C(=O)N[C@@H](CCC(N)=O)C(=O)N[C@@H](CCCNC(=N)N)C(=O)N[C@@H](CCCNC(=N)N)C(=O)N[C@@H](CCCNC(=N)N)C(N)=O)NC(=O)[C@H](CCCCN)NC(=O)[C@H](CCC(=O)O)NC(=O)[C@H](CC(=O)O)NC(=O)CNC1=O — Kd (HSP90AA1 (Homo sapiens, UniProt P07900); binding, field-effect biosensor; pH 7.4): 115000 ± 54500 nM
CC[C@H](C)[C@H](NC(=O)[C@H](Cc1ccc(O)cc1)NC(=O)[C@H](CCCNC(=N)N)NC(=O)[C@H](Cc1ccc(O)cc1)NC(=O)[C@H](CCSC)NC(C)=O)C(=O)N[C@H]1CSCc2cccc(c2)CSC[C@@H](C(=O)N[C@@H](CC(C)C)C(=O)N[C@@H](C)C(=O)N[C@@H](CO)C(=O)N[C@@H](Cc2ccc(O)cc2)C(=O)NCC(=O)N[C@@H](CO)C(=O)NCC(=O)N[C@@H](CO)C(=O)NCC(=O)N[C@@H](CO)C(=O)N[C@@H](CC(=O)O)C(=O)N[C@@H](Cc2ccc(O)cc2)C(=O)N[C@@H](CCCCN)C(=O)N[C@@H](CC(=O)O)C(=O)N[C@@H](CC(=O)O)C(=O)N[C@@H](CC(=O)O)C(=O)N[C@@H](CC(=O)O)C(=O)N[C@@H](CCCCN)C(N)=O)NC(=O)[C@H](CC(N)=O)NC(=O)[C@H](CO)NC(=O)[C@H](CC(C)C)NC(=O)[C@H]([C@@H](C)O)NC1=O — Kd (FGFR1; binding, BLI): > 10000 nM
C[C@H](N)C(=O)N[C@@H](CCCNC(=N)N)C(=O)N[C@H](C(=O)N[C@@H](CCCCN)C(=O)N[C@@H](CCC(N)=O)C(=O)N[C@H](C(=O)N[C@@H](C)C(=O)N[C@@H](CCCNC(=N)N)C(=O)N[C@@H](CCCCN)C(=O)N[C@@H](CO)C(=O)N[C@H](C(=O)NCC(=O)O)[C@@H](C)O)[C@@H](C)O)[C@@H](C)O — Kd (MORC family CW-type zinc finger protein 3, CW domain (MORC3, Homo sapiens, UniProt Q14149); binding): 6800 nM
CC(C)C[C@H](NC(=O)[C@@H]1CCCN1C(=O)[C@H](CCCCN)NC(=O)C[C@@H]1O[C@@H](C)[C@@H](O)[C@@H](O)[C@@H]1O)C(=O)NCCCC[C@H](NC(=O)[C@H](CC(C)C)NC(=O)[C@@H]1CCCN1C(=O)[C@H](CCCCN)NC(=O)C[C@@H]1O[C@@H](C)[C@@H](O)[C@@H](O)[C@@H]1O)C(=O)N[C@@H](Cc1ccccc1)C(=O)N[C@@H](CS)C(N)=O — Kd (lecB; binding, ITC; pH 7.5): 300 nM
C=C(C)C12OC3(c4ccccc4)OC1C1C(O)C(Br)(CO)C(O)C4(O)C(=O)C(C)=CC4C1(O3)C(C)C2OC(=O)c1ccccc1 (stereo not shown) — Kd (Importin subunit beta-1, C-terminal domain (550–876) (KPNB1, Homo sapiens, UniProt Q14974)): 201 nM
CC(C)C[C@H](NC(=O)[C@H](Cc1ccc(O)cc1)NC(=O)[C@@H](CCCNC(=N)N)NC(=O)[C@@H](CO)NC(=O)[C@H](Cc1ccccc1)NC(=O)[C@H](CC1CCCCC1)NC(=O)[C@H](CC(=O)O)NC(=O)CCC(C(=O)O)N1CCCN2CCN(CCCN(CC(=O)O)CC2)CC1)C(=O)N[C@@H](Cc1c[nH]c2ccccc12)C(=O)N[C@@H](CO)C(=O)O (stereo partly shown) — Kd (Urokinase plasminogen activator surface receptor (Homo sapiens, UniProt Q03405); binding, surface plasmon resonance): 27 nM
CC(C)C[C@@H]1NC(=O)[C@H](Cc2ccc(O)cc2)NC(=O)[C@H](CCCNC(=N)N)NC(=O)[C@H](C(C)C)NC(=O)[C@@H]2CCCN2C(=O)[C@H](Cc2ccccc2)NC(=O)[C@H](C)NC(=O)[C@H](CC(N)=O)NC(=O)[C@H](Cc2ccc(OS(=O)(=O)F)cc2)NC(=O)[C@@H](Cc2ccccc2)NC(=O)CSC[C@@H](C(=O)NCCOCCOCC(=O)NCCOCCOCC(=O)N[C@@H](CCCCN=[N+]=[N-])C(N)=O)NC(=O)[C@H](Cc2c[nH]c3ccccc23)NC(=O)[C@H](CCCCN)NC(=O)[C@H](CCCCN)NC1=O — Kd (Nectin-4, extracellular domain (Homo sapiens, UniProt Q96NY8); covalent binder, SPR single-cycle kinetics; PBS-T; 30 s contact, 25 °C): 2820 nM
O=C1SCCC1NC(C(=O)NCc1ccccc1)C1CC1 (stereo not shown) — Kd (TST (Homo sapiens, UniProt Q16762); activator): 15200 nM
CC(C)[C@@H]1NC(=O)[C@H](Cc2ccccc2)NC(=O)CSC[C@@H](C(N)=O)NC(=O)[C@H](CCC(=O)O)NC(=O)[C@H](CO)NC(=O)[C@H](Cc2c[nH]c3ccccc23)NC(=O)[C@H](C(C)C)NC(=O)[C@H](C(C)C)NC(=O)[C@H](Cc2ccc(O)cc2)NC(=O)[C@H](CC(=O)O)NC(=O)[C@H](Cc2c[nH]c3ccccc23)NC(=O)[C@H](Cc2ccc(O)cc2)NC(=O)[C@H](Cc2c[nH]c3ccccc23)NC(=O)[C@H](CCC(=O)O)NC1=O — Kd (Interleukin-1 receptor-like 2, D1-D2 domains (IL1RL2, Homo sapiens, UniProt Q9HB29); SPR; IL-36R D1-D2 with spesolimab Fab): 360 nM
N=C(N)NCCC[C@H](NC(=O)[C@H](CS)NC(=O)[C@H](Cc1ccc(O)cc1)NC(=O)[C@H](Cc1c[nH]c2ccccc12)NC(=O)[C@H](CCCNC(=N)N)NC(=O)[C@H](Cc1c[nH]c2ccccc12)NC(=O)CNC(=O)[C@H](Cc1c[nH]cn1)NC(=O)CNC(=O)CN)C(N)=O — Kd (HCV IIB RNA; fluorescein-labelled RNA titration; 1 mM TCEP): 10000 ± 2000 nM
CC[C@H](C)[C@H](NC(=O)[C@@H](N)CCCCN)C(=O)N[C@@H](Cc1c[nH]c2ccccc12)C(=O)N[C@@H](CC(C)C)C(=O)N[C@H](C(=O)N1CCC[C@H]1C(=O)NCC(=O)NCC(=O)N[C@@H](CC(=O)O)C(=O)N[C@H](C(=O)N[C@@H](CC(C)C)C(=O)N[C@@H](C)C(=O)O)C(C)C)[C@@H](C)CC — Kd (Gastrin-releasing peptide (Homo sapiens, UniProt P07492); biolayer interferometry): 95 nM
COc1nc(OCc2cccc(-c3ccccc3)c2C)ccc1CNCCNC(=O)CCCc1cn(CCC(=O)N[C@@H](CC(=O)O)C(=O)N[C@@H](Cc2c[nH]cn2)C(=O)N[C@@H](CC(C)C)C(=O)N[C@@H](C)C(=O)N[C@@H](CO)C(=O)N[C@@H](CC(C)C)C(=O)N[C@@H](Cc2c[nH]c3ccccc23)C(=O)N[C@@H](Cc2c[nH]c3ccccc23)C(=O)NCC(=O)N[C@H](C(=O)N[C@@H](CCC(=O)O)C(=O)N[C@@H](CC(C)C)C(=O)O)[C@@H](C)O)nn1 — Kd (Glypican-3 (Homo sapiens, UniProt P51654); binding, MST): 348 nM
COC(=O)C(C)C1N=C(c2ccc(Cl)cc2)c2cc(OC)ccc2-n2c(C)nnc21 (stereo not shown) — Kd (Bromodomain-containing protein 2, BD2 (BRD2, Homo sapiens, UniProt P25440); binding, ITC): 300 nM
CC(C)C[C@H](NC(=O)[C@@H]1CCCN1C(=O)[C@H](CCCCN)NC(=O)C[C@@H]1O[C@@H](C)[C@@H](O)[C@@H](O)[C@@H]1O)C(=O)NCCCC[C@H](NC(=O)[C@H](CC(C)C)NC(=O)[C@@H]1CCCN1C(=O)[C@H](CCCCN)NC(=O)c1ccc(O[C@@H]2O[C@H](CO)[C@H](O)[C@H](O)[C@H]2O)cc1)C(=O)N[C@@H](Cc1ccccc1)C(=O)N[C@@H](CS)C(N)=O — Kd (lecB; binding, ITC; pH 7.5): 2570 nM
CC[C@H](C)[C@H](NC(=O)[C@H](CCC(=O)O)NC(=O)[C@]1(C)CCCC=CCCCCCC[C@@](C)(NC(=O)[C@H](CCCNC(=N)N)NC(=O)[C@H](CC(N)=O)NC(=O)[C@H](CCC(=O)O)NC(=O)[C@@H]2CCCN2C(=O)[C@H](CC(=O)O)NC(=O)[C@H](CC(N)=O)NC(=O)[C@H](CC(=O)O)NC(=O)[C@H](CC(=O)O)NC(=O)[C@@H](N)CO)C(=O)N[C@@H](C)C(=O)N[C@@H](CCCCN)C(=O)N[C@@H](CCCCN)C(=O)N[C@@H](CCSC)C(=O)N[C@@H](CC(C)C)C(=O)N[C@@H](CC(C)C)C(=O)N1)C(=O)N[C@@H](CCCCN)C(=O)N[C@@H](C)C(=O)N[C@@H](CC(N)=O)C(=O)N[C@@H](CC(C)C)C(=O)N[C@@H](CO)C(=O)O — Kd (Death domain-associated protein 6, residues 55-144 (Homo sapiens, UniProt Q9UER7); isothermal titration calorimetry; pH 7.5, 25 °C): 550 nM
CSCC[C@H](NC(C)=O)C(=O)N[C@@H](CO)C(=O)N[C@@H](CO)C(=O)N1CCC[C@H]1C(=O)N1CCC[C@H]1C(=O)N[C@H]1CSCc2cc3cc(c2)CSC[C@@H](C(=O)N[C@@H](CC(C)C)C(=O)N[C@@H](CCCNC(=N)N)C(=O)N[C@@H](CCCNC(=N)N)C(=O)N[C@@H](Cc2ccc(O)cc2)C(=O)NCC(=O)N[C@@H](CO)C(=O)NCC(=O)N[C@@H](CO)C(=O)NCC(=O)N[C@@H](CO)C(=O)N[C@@H](CC(=O)O)C(=O)N[C@@H](Cc2ccc(O)cc2)C(=O)N[C@@H](CCCCN)C(=O)N[C@@H](CC(=O)O)C(=O)N[C@@H](CC(=O)O)C(=O)N[C@@H](CC(=O)O)C(=O)N[C@@H](CC(=O)O)C(=O)N[C@@H](CCCCN)C(N)=O)NC(=O)[C@H](CSC3)NC(=O)CNC(=O)[C@H](CC(C)C)NC(=O)[C@H]([C@@H](C)O)NC1=O — Kd (FGFR1; binding, BLI): 4150 nM

For quick reference, copied from above:
CC[C@H](C)[C@H](NC(=O)[C@H](Cc1ccc(O)cc1)NC(=O)[C@H](CCCNC(=N)N)NC(=O)[C@H](Cc1ccc(O)cc1)NC(=O)[C@H](CCSC)NC(C)=O)C(=O)N[C@H]1CSCc2cccc(c2)CSC[C@@H](C(=O)N[C@@H](CC(C)C)C(=O)N[C@@H](C)C(=O)N[C@@H](CO)C(=O)N[C@@H](Cc2ccc(O)cc2)C(=O)NCC(=O)N[C@@H](CO)C(=O)NCC(=O)N[C@@H](CO)C(=O)NCC(=O)N[C@@H](CO)C(=O)N[C@@H](CC(=O)O)C(=O)N[C@@H](Cc2ccc(O)cc2)C(=O)N[C@@H](CCCCN)C(=O)N[C@@H](CC(=O)O)C(=O)N[C@@H](CC(=O)O)C(=O)N[C@@H](CC(=O)O)C(=O)N[C@@H](CC(=O)O)C(=O)N[C@@H](CCCCN)C(N)=O)NC(=O)[C@H](CC(N)=O)NC(=O)[C@H](CO)NC(=O)[C@H](CC(C)C)NC(=O)[C@H]([C@@H](C)O)NC1=O — Kd (FGFR1; binding, BLI): > 10000 nM
C[C@H](N)C(=O)N[C@@H](CCCNC(=N)N)C(=O)N[C@H](C(=O)N[C@@H](CCCCN)C(=O)N[C@@H](CCC(N)=O)C(=O)N[C@H](C(=O)N[C@@H](C)C(=O)N[C@@H](CCCNC(=N)N)C(=O)N[C@@H](CCCCN)C(=O)N[C@@H](CO)C(=O)N[C@H](C(=O)NCC(=O)O)[C@@H](C)O)[C@@H](C)O)[C@@H](C)O — Kd (MORC family CW-type zinc finger protein 3, CW domain (MORC3, Homo sapiens, UniProt Q14149); binding): 6800 nM
